Measured values pooled from the literature.
A part holds a random share of what one study measured.

Study 1
Target: Histone acetyltransferase KAT6A, winged helix 1, GST fusion (KAT6A, Homo sapiens, UniProt Q92794, residues 1-85)
Method: protein binding microarray
Form: double-stranded DNA, one strand shown
Matrix: in vitro
Tested at: not given
Setting: 8-mer, flanks averaged, mean of 2 arrays, mostly near background
Reference: not given
Reading: higher = stronger binding
Residues (chain): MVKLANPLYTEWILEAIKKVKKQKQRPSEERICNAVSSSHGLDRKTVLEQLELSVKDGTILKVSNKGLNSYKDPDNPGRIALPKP
Oligonucleotide | E-score
ACTCAAAC | -0.119
AAAAGTCC | -0.0463
CAATTCTA | -0.28
ACCACGCT | 0.0385
CGCCCCAG | 0.0689
CCGTCCAA | 0.188
TCCAGTAA | -0.102
AGTGTCGA | -0.183
CAAGTTTC | 0.00183

Study 2
Target: TAR DNA-binding protein 43, full length, His tag (TARDBP, Homo sapiens, UniProt Q13148, residues 1-414)
Method: RNA Bind-n-Seq
Form: RNA
Matrix: in vitro
Tested at: 20 nM
Setting: 6-mer, flanks averaged, single round
Added: 150 mM LiCl
Reference: input library
Reading: higher = stronger binding
Oligonucleotide | 6-mer enrichment (R)
CAAUAG | 0.876
UACCUC | 0.9
GCAUGG | 1.16
GAAGGA | 1
GAAAUA | 0.87
CAAAGC | 0.795
GAACUU | 0.921

Study 3
Target: Sal-like protein 4, full length isoform B (SALL4, Homo sapiens, UniProt Q9UJQ4-2, residues 1-616)
Method: universal PBM
Form: double-stranded DNA, one strand shown
Matrix: in vitro
Tested at: not given
Setting: 8-mer, flanks averaged, mean of replicates
Reading: higher = stronger binding
Oligonucleotide | E-score
GACGATAA | 0.176
GGACCTTA | -0.101
AAGGCCTT | -0.0816
CTACCCTA | -0.0623
GTACTGGA | -0.026
CGAGTACC | -0.0333

Single results of other studies
Substance | target | test | test system | setting | scale | endpoint | result
PhoQ, residues 284 288 289 292 302 303 AGGCYF | PhoP, residues 12 14 15 18 19 LHSVQ (Escherichia coli, UniProt P23836) | Sort-seq, refers to: YFP reporter | E. coli | PhoQ-PhoP variant library, added: 10 µM Mg2+ | reference: high Mg2+ state, higher = stronger signaling | fold induction | 0.993

For quick reference, copied from above (study 1):
Oligonucleotide | E-score
CGCCCCAG | 0.0689
TCCAGTAA | -0.102
AAAAGTCC | -0.0463
